# Results of several laboratories.
# Each numbered part is a random draw from the data of one study; scales do not carry over between parts.
# Chain of UniProt O00444 (whole entry, looked up): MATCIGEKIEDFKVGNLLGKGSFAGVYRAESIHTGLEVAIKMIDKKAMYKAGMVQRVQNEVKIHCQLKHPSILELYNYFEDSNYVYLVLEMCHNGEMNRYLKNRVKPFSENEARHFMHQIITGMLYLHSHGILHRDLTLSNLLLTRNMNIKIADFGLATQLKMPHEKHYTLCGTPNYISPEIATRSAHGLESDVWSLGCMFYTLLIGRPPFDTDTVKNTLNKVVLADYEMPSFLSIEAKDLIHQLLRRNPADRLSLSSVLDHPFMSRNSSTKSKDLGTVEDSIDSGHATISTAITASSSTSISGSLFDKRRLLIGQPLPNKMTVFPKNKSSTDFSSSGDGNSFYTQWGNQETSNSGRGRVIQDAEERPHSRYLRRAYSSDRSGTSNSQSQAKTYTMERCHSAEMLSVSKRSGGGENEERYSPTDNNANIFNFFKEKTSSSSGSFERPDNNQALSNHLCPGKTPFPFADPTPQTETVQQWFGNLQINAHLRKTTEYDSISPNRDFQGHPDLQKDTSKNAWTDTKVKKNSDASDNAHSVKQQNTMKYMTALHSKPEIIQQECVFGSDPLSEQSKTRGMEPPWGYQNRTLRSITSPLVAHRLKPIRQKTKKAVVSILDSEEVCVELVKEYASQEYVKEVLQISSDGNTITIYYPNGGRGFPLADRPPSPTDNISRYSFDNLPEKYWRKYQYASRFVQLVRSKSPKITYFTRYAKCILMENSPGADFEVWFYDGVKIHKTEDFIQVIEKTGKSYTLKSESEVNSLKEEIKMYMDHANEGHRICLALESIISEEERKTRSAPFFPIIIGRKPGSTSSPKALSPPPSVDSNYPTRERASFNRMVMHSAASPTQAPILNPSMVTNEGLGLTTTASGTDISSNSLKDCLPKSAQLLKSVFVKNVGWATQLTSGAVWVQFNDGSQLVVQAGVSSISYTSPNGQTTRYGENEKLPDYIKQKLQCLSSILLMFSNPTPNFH
# Chain of UniProt P54764 (whole entry, looked up): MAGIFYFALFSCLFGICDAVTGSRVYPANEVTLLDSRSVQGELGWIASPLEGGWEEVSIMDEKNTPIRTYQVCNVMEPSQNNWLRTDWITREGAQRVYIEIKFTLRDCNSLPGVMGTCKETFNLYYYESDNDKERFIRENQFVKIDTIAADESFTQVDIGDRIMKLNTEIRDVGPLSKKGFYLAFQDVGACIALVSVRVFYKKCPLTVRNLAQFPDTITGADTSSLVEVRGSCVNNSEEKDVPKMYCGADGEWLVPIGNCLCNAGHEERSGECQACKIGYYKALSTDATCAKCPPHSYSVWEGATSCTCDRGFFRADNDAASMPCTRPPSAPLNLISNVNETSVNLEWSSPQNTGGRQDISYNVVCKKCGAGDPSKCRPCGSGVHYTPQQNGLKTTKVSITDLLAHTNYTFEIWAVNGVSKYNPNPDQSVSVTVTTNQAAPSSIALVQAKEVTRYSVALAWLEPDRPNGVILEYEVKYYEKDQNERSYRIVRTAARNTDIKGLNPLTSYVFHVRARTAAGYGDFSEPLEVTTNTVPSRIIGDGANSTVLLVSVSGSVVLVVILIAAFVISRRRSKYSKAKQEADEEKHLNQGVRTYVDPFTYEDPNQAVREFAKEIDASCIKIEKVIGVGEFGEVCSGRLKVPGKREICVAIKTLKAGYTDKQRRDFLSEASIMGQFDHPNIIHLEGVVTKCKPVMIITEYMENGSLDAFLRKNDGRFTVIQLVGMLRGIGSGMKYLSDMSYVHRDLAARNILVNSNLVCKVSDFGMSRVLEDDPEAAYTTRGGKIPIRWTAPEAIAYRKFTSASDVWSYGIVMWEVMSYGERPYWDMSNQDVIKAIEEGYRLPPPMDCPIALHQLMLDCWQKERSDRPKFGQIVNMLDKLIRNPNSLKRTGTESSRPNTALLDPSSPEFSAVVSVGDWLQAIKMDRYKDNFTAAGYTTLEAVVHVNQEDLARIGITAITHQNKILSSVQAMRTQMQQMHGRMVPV
# Chain of UniProt Q8IU85 (whole entry, looked up): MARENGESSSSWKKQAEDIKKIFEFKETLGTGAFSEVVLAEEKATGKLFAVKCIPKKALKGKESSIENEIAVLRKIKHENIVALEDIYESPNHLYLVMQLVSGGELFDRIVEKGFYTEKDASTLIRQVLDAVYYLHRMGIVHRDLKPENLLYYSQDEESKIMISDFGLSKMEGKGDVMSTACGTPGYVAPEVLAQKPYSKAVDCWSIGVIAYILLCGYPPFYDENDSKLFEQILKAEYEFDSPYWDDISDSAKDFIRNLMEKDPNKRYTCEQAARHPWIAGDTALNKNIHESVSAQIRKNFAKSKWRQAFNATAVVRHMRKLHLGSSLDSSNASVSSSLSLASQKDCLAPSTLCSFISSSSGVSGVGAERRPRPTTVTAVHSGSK
# Chain of UniProt P06213 (whole entry, looked up): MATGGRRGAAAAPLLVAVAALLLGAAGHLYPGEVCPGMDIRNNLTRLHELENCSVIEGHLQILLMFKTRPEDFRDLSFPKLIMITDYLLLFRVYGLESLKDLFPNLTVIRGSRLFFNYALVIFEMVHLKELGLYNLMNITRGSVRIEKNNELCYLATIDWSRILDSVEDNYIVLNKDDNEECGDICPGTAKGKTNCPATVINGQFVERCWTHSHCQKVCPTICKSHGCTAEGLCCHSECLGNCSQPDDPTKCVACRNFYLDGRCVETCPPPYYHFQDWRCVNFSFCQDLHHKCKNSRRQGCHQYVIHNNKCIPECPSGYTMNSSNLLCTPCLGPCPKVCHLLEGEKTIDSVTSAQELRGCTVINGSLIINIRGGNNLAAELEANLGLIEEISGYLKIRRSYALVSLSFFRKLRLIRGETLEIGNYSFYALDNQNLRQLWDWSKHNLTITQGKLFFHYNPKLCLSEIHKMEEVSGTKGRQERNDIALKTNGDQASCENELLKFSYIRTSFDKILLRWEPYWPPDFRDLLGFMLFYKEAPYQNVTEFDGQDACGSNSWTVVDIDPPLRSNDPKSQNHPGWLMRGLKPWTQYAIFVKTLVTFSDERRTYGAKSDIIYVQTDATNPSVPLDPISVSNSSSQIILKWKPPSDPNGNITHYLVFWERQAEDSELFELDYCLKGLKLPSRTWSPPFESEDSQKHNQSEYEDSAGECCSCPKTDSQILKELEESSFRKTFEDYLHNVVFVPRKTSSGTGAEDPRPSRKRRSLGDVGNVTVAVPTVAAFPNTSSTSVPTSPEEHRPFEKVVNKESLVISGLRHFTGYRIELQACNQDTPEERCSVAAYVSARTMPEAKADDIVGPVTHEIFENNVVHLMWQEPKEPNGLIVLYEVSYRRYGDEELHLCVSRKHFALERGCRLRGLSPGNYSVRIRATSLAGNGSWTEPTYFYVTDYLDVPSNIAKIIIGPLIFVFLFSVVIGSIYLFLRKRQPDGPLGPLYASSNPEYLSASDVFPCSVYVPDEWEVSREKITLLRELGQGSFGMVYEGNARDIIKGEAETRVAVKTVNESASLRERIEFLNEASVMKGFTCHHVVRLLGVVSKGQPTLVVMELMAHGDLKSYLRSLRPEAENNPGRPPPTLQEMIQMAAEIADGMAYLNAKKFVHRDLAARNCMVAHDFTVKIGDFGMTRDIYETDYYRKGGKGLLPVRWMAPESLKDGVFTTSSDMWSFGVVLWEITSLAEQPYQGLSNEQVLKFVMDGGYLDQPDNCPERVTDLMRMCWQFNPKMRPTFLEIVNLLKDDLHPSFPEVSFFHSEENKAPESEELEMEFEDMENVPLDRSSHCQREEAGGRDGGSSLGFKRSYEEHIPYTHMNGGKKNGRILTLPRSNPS
# Chain of UniProt O14920 (whole entry, looked up): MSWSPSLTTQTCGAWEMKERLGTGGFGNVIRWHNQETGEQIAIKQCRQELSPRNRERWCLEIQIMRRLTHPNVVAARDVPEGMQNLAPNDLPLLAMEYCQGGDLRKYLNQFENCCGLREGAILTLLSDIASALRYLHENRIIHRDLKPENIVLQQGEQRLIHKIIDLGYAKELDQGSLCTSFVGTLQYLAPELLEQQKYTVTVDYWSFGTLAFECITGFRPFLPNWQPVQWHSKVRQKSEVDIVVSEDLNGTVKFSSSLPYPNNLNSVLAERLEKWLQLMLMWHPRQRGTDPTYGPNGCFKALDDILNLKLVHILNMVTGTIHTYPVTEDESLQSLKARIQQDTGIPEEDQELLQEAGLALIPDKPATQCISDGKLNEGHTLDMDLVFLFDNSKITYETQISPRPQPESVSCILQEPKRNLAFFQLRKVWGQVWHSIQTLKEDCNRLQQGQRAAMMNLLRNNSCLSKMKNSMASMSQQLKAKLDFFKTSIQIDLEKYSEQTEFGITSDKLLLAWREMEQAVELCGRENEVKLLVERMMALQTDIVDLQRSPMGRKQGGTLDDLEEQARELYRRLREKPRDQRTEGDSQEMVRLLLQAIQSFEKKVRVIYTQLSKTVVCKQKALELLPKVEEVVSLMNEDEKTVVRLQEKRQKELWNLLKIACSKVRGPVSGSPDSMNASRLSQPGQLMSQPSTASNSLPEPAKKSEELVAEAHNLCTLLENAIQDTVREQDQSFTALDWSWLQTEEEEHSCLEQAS
# Chain of UniProt P36897 (whole entry, looked up): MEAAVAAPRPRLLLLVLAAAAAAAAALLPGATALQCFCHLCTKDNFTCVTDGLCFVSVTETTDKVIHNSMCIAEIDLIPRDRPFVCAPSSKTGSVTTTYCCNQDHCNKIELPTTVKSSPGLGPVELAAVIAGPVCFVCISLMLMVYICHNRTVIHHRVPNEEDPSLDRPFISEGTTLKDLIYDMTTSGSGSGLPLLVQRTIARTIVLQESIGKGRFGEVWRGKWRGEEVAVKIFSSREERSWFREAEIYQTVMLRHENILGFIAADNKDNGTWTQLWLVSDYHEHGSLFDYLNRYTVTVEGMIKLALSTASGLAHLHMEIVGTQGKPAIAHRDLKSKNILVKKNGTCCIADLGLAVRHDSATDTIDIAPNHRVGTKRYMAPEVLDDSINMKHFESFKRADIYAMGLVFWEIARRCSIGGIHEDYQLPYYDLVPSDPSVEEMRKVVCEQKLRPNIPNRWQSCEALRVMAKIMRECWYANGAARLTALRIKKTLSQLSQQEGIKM

# Study 1 — method: RNA Bind-n-Seq; form: RNA; sample: in vitro; tested at: 365 nM; reference: no-protein control; direction: higher = stronger binding
# Target: RNA binding protein fox-1 homolog 2, RRM domain, GST-SBP tag (RBFOX2, Homo sapiens, UniProt O43251-10, residues 100-194)
# Setting: natural RNA segment, single round, ends assumed
# Shared flanks, not repeated: GGGAGUUCUACAGUCCGACGAUC … UGGAAUUCUCGGGUGCCAA
# Construct (chain): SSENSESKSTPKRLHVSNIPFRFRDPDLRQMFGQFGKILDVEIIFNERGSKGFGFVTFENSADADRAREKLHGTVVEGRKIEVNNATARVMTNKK
Strand,RBNS enrichment (R)
ACUUGGCUGCACCCCACUGUCCCUUGCAAGACAGGUUCUGGAGCCAGGAGCAACUGUCCAGCCCUCCAGAAGAGACAGCAAGCAGCCCCCCUACCCACUCUGGCCUCCCC,0.418
UAACUGUUAGCUUAAAACUGUGGGGUUUUACCUUCCUGGAACCAAAUGCAUUCUUCUGUUGAGGAGUAACAGGUCUCAAUUCUUUUCAAUUAAUUUUAAAAGUCAAUCAC,0.493
GGUGACUCUGUCCAGCUCCCGCUGUGGCCGCACGCCUCUCCCUGCACUCCCUCCUGGAGCUCUGUGGGUCUCUGGAAGAGGAACCAGGAGAAGGGCUGGGGCCGGGGCUG,0.282
AACAGCCUCCUCCAGCCCUGCUUUAGGAUGACACAAUGAAUAACACCUAGGCAUAGAAACCAGUCUCUUUGGUUUGUUUGUAUUAUGUUCUACAAUAUUAAAGAUCUAAA,0.51
ACCUAAAGGAAUGGAAUGAUGCUGUUUUUGUUUUGAGUUUGACCUUAACCUUGCUAUGUCUCUCCUUUGAAUAAUGGGGCUUAAAAGAAUAAUGAACAUGGAAUUUGAAU,1.45
AAACUUUAAUUUUGAAGAAGAAUAUAUUGACUUACUAAGGGGAAGUAUUCUCAUUUUGAGUGACAUUCAGAGGUUCACGUUUGCUUCUCUGCCGAGCAAAGGGAACGUCC,0.435
UUUACAACAAAAUGUUAAUUAUAUUCUAAAUACAGGGUAUGUUCUAAUCUAUAUUAAGCAAUAAUGCCAGUGCAUAAUCAUUCCAUUUGUUCCUUUAGCAAUCAACCCCA,0.471
UUUACUUGGGUACUUAAGAGUUAUUGUAUUAAUAAAAAGUUAUUGACUUGUCCUUUGAGAGCCUUCUUACAGAGAAUUGGUUAAAAAAACCAAACAUUCAAUUUGGAAUA,0.504

# Study 2 — read-out: cell-free assay; method: competition with immobilised ligand; tested at: 1 µM
# SMILES: CC(=O)N1CCC(c2ccc(C(=O)NC(=N)N)cc2C(F)(F)F)CC1
target,remaining binding
"EPHA4 (Homo sapiens, UniProt P54764)",100%
"IKBKB (Homo sapiens, UniProt O14920)",100%
"PDGFRA (Homo sapiens, UniProt P16234)",100%
"DYRK2 (Homo sapiens, UniProt Q92630)",89%
"PRKAA1 (Homo sapiens, UniProt Q13131)",97%
"PLK4 (Homo sapiens, UniProt O00444)",100%
"Insulin receptor (INSR, Homo sapiens, UniProt P06213)",100%
"ULK2 (Homo sapiens, UniProt Q8IYT8)",100%
"CAMK1D (Homo sapiens, UniProt Q8IU85)",95%
"FGR (Homo sapiens, UniProt P09769)",91%
"TGFBR1 (Homo sapiens, UniProt P36897)",100%
"FGFR3 (Homo sapiens, UniProt P22607)",100%
"EIF2AK1 (Homo sapiens, UniProt Q9BQI3)",100%
"SLK (Homo sapiens, UniProt Q9H2G2)",100%
"CSNK1G3 (Homo sapiens, UniProt Q9Y6M4)",100%

# Study 3 — host: human; sample: microsomes or S9; tested at: 2 µM; time: 0.5 h
SMILES,remaining compound [%]
O=C1CC(N2CCC3(CC2)OCCO3)C(=O)N1c1ccc2c(c1)OCO2 (stereo not drawn),41.4
Cc1ccc(Nc2c(-c3cc(Br)ccc3O)nc3ncccn23)c(C)c1,52.9
c1ccc(-c2ncn(CCn3nnc4ccccc43)c2-c2ccsc2)cc1,3.5
Cc1cc(C)c(C)c(S(=O)(=O)NCCOCCO)c1C,48.4

# Further values, each from its own experiment — HNRNPU: HNRNPU (Homo sapiens, UniProt Q00839)
# Histone H2B type 1-C/E/F/G/I: Histone H2B type 1-C/E/F/G/I (Homo sapiens, UniProt P62807)
Molecule,target or system,test,system,setting,scale,measurement,result
"GART (Homo sapiens, UniProt P22102)",HNRNPU,cross-linking MS,cell fractions,with: DSSO,,cross-linked residues,K251 to K331
C[C@]12CCC(=O)C=C1CC[C@@H]1[C@@H]2[C@@H](O)C[C@@]2(C)[C@H]1CC[C@]2(O)C(=O)CO,Plasmodium berghei,inhibitor,"Huh-7, liver stage","10 µM, 24 h",reference: untreated control,infection rate,104%
"H2AX (Homo sapiens, UniProt P16104)",Histone H2B type 1-C/E/F/G/I,cross-linking MS,,hits only,,interaction screen,cross-linked
NC(=O)CC[C@H](N)C(=O)O,Plasmodium berghei,inhibitor,"Huh-7, liver stage","10 µM, 24 h",reference: untreated control,infection rate,80.5%
"RCC1 (Homo sapiens, UniProt P18754)",Histone H2B type 1-C/E/F/G/I,cross-linking MS,,hits only,,interaction screen,cross-linked
"PPP1R12A (Homo sapiens, UniProt O14974)",HNRNPU,cross-linking MS,cell fractions,with: DSSO,,cross-linked residues,S292 to K489

# Some of these lines once more (study 2):
target,remaining binding
"Insulin receptor (INSR, Homo sapiens, UniProt P06213)",100%
"ULK2 (Homo sapiens, UniProt Q8IYT8)",100%
